Assay results of several laboratories.
Compare with care: the assays were run in different laboratories. Several values in a cell are separate wells, animals, samples, runs or records. ± marks the error that the study gave. ≈ marks a conversion by molar mass, not a printed value.

C[N+]1=C2C(c3ccc(Cl)cc3)=[N+]([O-])c3ccccc3N2CCC1 — MIC50 (Clostridium perfringens; microbial growth): 32 µg/mL
Cc1ccc(NS(=O)(=O)c2c(C(=O)N3CCCCCC3)c(C)n(C)c2C)c(Cl)c1 — relative infection (Monkeypox virus; Vero C1008, wild type; 0.04 µM, 72 h; baseline: untreated): 96% and 101%
O=C(C=Cc1ccc(O)c(O)c1)OC1CC(O)(C(=O)O)CC(OC(=O)C=Cc2ccc(O)c(O)c2)C1O (centres unmarked) — inhibition (Severe acute respiratory syndrome coronavirus 2; cytopathic effect, inhibitor; Vero C1008; 1.562 µM): 0%
COC(=O)c1ncn(CCO)c1C(=O)OC — IC50 (Zaire ebolavirus; viral replication, inhibitor; Vero; 72 h): 17 µg/mL
NS(=O)(=O)c1cccc2c1C(=O)c1cccc(O)c1C2=O — inhibition of cytopathic effect (SARS-CoV-2 USA_WA1/2020; Vero E6; concentration not given, 72 h): 0%
O=S(=O)(O)c1c2ccccc2c(-c2c3nc(c(-c4c5ccccc5c(S(=O)(=O)O)c5ccccc45)c4ccc([nH]4)c(-c4c5ccccc5c(S(=O)(=O)O)c5ccccc45)c4nc(c(-c5c6ccccc6c(S(=O)(=O)O)c6ccccc56)c5ccc2[nH]5)C=C4)C=C3)c2ccccc12 — EC50 (vaccinia virus; viral replication; BSC-40, Western Reserve): 0.15 ± 0.03 µg/mL
CC(=O)OCCOCn1cnc(C#N)c1C#N — IC50 (Mammarenavirus lassaense; viral replication, inhibitor; Vero; 48 h): 10 µg/mL
NC(=O)c1ncn([C@@H]2O[C@H](CO)[C@@H](O)[C@H]2O)n1 — Emax (Lassa mammarenavirus; viral replication; Huh-7; concentration not given): 99.2 ± 0.94%
CCCCCCCCCCCCCC(=O)N[C@@H](CCCNC(=N)N)C(=O)N[C@@H](CO)C(=O)N[C@@H](CCSC)C(=O)N[C@@H](CCCCN)C(=O)N[C@@H](CCCNC(=N)N)C(=O)N[C@@H](CO)C(=O)N[C@@H](CC(C)C)C(=O)N[C@H](C(=O)N1CCC[C@H]1C(=O)N[C@@H](CCCNC(=N)N)C(=O)N[C@@H](Cc1c[nH]c2ccccc12)C(=O)N[C@H](C(=O)NCC(=O)N[C@@H](CC(N)=O)C(=O)N[C@@H](CCCCN)C(=O)N[C@@H](CCCNC(=N)N)C(=O)O)[C@@H](C)CC)[C@@H](C)CC — viral spread (Vaccinia virus; B5-GFP; concentration not given): no effect
O=[N+]([O-])c1ccc(-n2nc(-c3ccccc3)cc2-c2ccc(F)cc2)c([N+](=O)[O-])c1 — viral RNA reduction (Japanese encephalitis virus; SA14-14-2, BALB/c mice, spleen; ip, 100 mg/kg/day; baseline: untreated): > 41%
O=C(O)c1ncn(CCO)c1C(=O)O — IC50 (Mammarenavirus lassaense; viral replication, inhibitor; Vero; 48 h): 4 µg/mL
CC(C)CC(C(=O)N1CC2(CC1C#N)C(=O)Nc1ccccc12)N(C)C(=O)c1cc2c(F)cc(F)c(F)c2[nH]1 (centres unmarked) — inhibition (SARS-CoV-2; viral replication, infectious virus; Vero E6; 0.041 µM): 95%
CC(C)C1=CC2=CC[C@@H]3[C@](C)(CCC[C@@]3(C)C(=O)OCC#CCN3CCCC3)[C@H]2CC1 — infected cells (SARS-CoV-2 pseudovirus; BHK-21-hACE2; 20 µM): decreased
[O-][N+]1=C(c2ccsc2)C2=NCCCN2c2ccccc21 — MIC90 (Clostridium perfringens): 8 µg/mL (≈ 28.2 µM)
CC[C@H](C)[C@H](NC(=O)[C@H](CCCCN)NC(=O)[C@H](CCCCN)NC(=O)[C@H](CC(C)C)NC(=O)[C@H](Cc1c[nH]c2ccccc12)NC(=O)CN)C(=O)NCC(=O)N[C@@H](CCCCN)C(=O)N[C@@H](CCCCN)C(=O)N[C@H](C(=O)N[C@@H](CCC(=O)O)C(=O)N[C@@H](CCCNC(=N)N)C(=O)N[C@H](C(=O)NCC(=O)N[C@@H](CCC(N)=O)C(=O)N[C@@H](Cc1c[nH]cn1)C(=O)N[C@H](C(=O)N[C@@H](CCCNC(=N)N)C(=O)N[C@@H](CC(=O)O)C(=O)N[C@@H](C)C(=O)N[C@H](C(=O)N[C@H](C(=O)N[C@@H](CCC(N)=O)C(=O)N[C@H](C(=O)N[C@H](C(=O)NCC(=O)N[C@H](C(=O)N[C@@H](C)C(=O)N[C@@H](CCC(N)=O)C(=O)N[C@@H](CCC(N)=O)C(=O)N[C@@H](C)C(=O)N[C@@H](C)C(=O)N[C@@H](CC(N)=O)C(=O)N[C@H](C(=O)N[C@@H](C)C(=O)N[C@@H](C)C(=O)N[C@H](C(=O)N[C@@H](CC(C)C)C(=O)N[C@@H](CCCCN)C(N)=O)[C@@H](C)O)C(C)C)C(C)C)[C@@H](C)CC)[C@@H](C)O)[C@@H](C)CC)[C@@H](C)O)[C@@H](C)O)C(C)C)[C@@H](C)CC — MIC (Candida albicans; broth microdilution; FH2173, CAMHB): > 1020 µg/mL
O=S(=O)(Nc1ccccc1)c1ccc(N=C=S)cc1 — attaching and effacing lesions (Escherichia coli; HeLa, EHEC; 5 nM): decreased
O=[N+]([O-])c1ccc(C2=[N+]([O-])c3ccccc3N3CCCN=C23)cc1 — MIC50 (Clostridium perfringens; microbial growth): 0.5 µg/mL (≈ 1.55 µM)
N#Cc1ncn(COCCO)c1C#N — IC50 (Zaire ebolavirus; viral replication, inhibitor; Vero; 72 h): 41 µg/mL
COC(=O)CC1C2CCCN3CCCC(CN1C(=O)c1ccc(Cl)cc1)C23.Cl (centres unmarked) — selectivity index (Ebola virus; EBOV GP pseudotyped HIV; baseline: CC50 over IC50): > 2.27
CN1CCN(C(=O)N[C@@H](Cc2ccccc2)C(=O)N[C@H](/C=C/S(=O)(=O)c2ccccc2)CCc2ccccc2)CC1 — IC50 (Sudan ebolavirus; pseudovirus entry; HEK293T; SUDV): 1.14 ± 0.07 nM
COC(=O)c1ccccc1NC(=O)Cc1cn(OC)c2ccccc12 — EC50 fold change (HIV-1; viral replication; RT K103N/V108I; baseline: wild type): 4.07 ± 0.08 fold
C[N+]1=C2C(c3ccccc3)=[N+]([O-])c3ccccc3N2CCC1 — MIC (Clostridium perfringens): 16 to 32 µg/mL
CC(C=CC(O)=C1C(=O)CNC1=O)=CC(C)C1OC2(C)OC(C(=O)C(O)C2(C)O)C1C (centres unmarked) — MIC (Bacillus anthracis; 34F2): > 100 µM

Repeated from above:
NC(=O)c1ncn([C@@H]2O[C@H](CO)[C@@H](O)[C@H]2O)n1 — Emax (Lassa mammarenavirus; viral replication; Huh-7; concentration not given): 99.2 ± 0.94%
[O-][N+]1=C(c2ccsc2)C2=NCCCN2c2ccccc21 — MIC90 (Clostridium perfringens): 8 µg/mL (≈ 28.2 µM)
C[N+]1=C2C(c3ccccc3)=[N+]([O-])c3ccccc3N2CCC1 — MIC (Clostridium perfringens): 16 to 32 µg/mL
NS(=O)(=O)c1cccc2c1C(=O)c1cccc(O)c1C2=O — inhibition of cytopathic effect (SARS-CoV-2 USA_WA1/2020; Vero E6; concentration not given, 72 h): 0%
